# Measurements gathered from unrelated publications.
# Every numbered part comes from another study and shows a few of its results, in no order.

# Sample 1 — method: RNA Bind-n-Seq; molecule type: RNA; medium: in vitro; tested at: 1 µM; notes: whole 134-nt RNA, ends assumed; together with: 150 mM KCl; baseline: input library; direction: higher = stronger binding
# Target: Ras GTPase-activating protein-binding protein 1, RRM domain (G3BP1, Homo sapiens, UniProt Q13283)
# UniProt Q13283, sequence (whole entry, looked up): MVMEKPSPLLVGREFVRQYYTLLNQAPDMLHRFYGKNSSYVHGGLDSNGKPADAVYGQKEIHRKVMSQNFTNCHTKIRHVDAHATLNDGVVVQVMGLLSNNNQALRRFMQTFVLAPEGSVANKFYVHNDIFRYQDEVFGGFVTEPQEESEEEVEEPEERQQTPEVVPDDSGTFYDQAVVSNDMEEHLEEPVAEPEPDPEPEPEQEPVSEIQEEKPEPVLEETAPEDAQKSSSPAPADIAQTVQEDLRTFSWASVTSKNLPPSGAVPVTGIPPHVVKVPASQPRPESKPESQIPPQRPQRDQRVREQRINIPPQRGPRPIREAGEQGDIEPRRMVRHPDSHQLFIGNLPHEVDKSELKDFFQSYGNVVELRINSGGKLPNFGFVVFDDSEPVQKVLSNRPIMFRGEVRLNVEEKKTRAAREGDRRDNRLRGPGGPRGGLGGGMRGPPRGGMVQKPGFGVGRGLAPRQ
Strand,log2 enrichment
GGGAGUUCUACAGUCCGACGAUCCAAGUCCUGUGCUACACAUCGUAUGUACCGAAUCGGUUUGGGGUUUGGGGUUUGGAAAGUAUUAUGUUACGCCGUUCGGAUCUGCACUUCUGGAAUUCUCGGGUGUCAAGG,-0.402
GGGAGUUCUACAGUCCGACGAUCCUCAAGUCCUGUGCUACACAUCGUAUGUACCGAAUCGGGGAAGGGAAGGAAGGAAAGUAUUAUGUUACGCCGUUCGGAUCUGCACUUCCAUGGAAUUCUCGGGUGUCAAGG,-0.387
GGGAGUUCUACAGUCCGACGAUCUGGGAGGUGGAUUUUGUUUAUUUUUUUAGCUCAUUUCCAGGGGUGGGAAUUUUUUUUUAAUAUGUGUCAUGAAUAAAGUUGUUUUUGGAAUGGAAUUCUCGGGUGUCAAGG,1.05
GGGAGUUCUACAGUCCGACGAUCUGGCCCUGGUGGCAUGCGGGGAGGAAGAGGUGGCCUCAUGGAUCGUGGUGGUCCCGGUGGAAUGUUCAGAGGUGGCCGUCGUGGAGACAGUGGAAUUCUCGGGUGUCAAGG,1.09

# Sample 2 — method: protein-binding microarray; molecule type: double-stranded DNA, one strand shown; medium: in vitro; tested at: 940 nM top; notes: 60-bp whole probe; together with: salmon DNA 0.4 mg/ml; baseline: random background probes; direction: higher = stronger binding
# Target: Interferon regulatory factor 5, full length, phosphomimetic (IRF5, Homo sapiens, UniProt Q13568-2, residues 1-514, S451D/S453D/S456D/S462D)
Strand,fitted relative affinity [z-score]
GCCTAGCACGACGATCTCAGTCTCGGGACGTGCTAGGTCTTGATTCGCTTGACGCTGCTG,0.971
GCCTAGCACGACGGTCTCGGTGTCGGGACGTGCTAGGTCTTGATTCGCTTGACGCTGCTG,2.79
GCCTAGCACCCTAGTTTTACTTTCTATGTGTGCTAGGTCTTGATTCGCTTGACGCTGCTG,2.01
GCCTAGCACTCATTTTTTTTTTTTGTACTGTGCTAGGTCTTGATTCGCTTGACGCTGCTG,1.09

# Sample 3 — method: protein-binding microarray; molecule type: double-stranded DNA, one strand shown; medium: in vitro; tested at: 0.8 µM; notes: whole 60-bp probe, no competitor; direction: higher = stronger binding
# Target: Centromere-binding protein 1, full length, N-terminal tag (CBF1, Saccharomyces cerevisiae, UniProt P17106, residues 1-351)
# UniProt P17106, sequence (whole entry, looked up): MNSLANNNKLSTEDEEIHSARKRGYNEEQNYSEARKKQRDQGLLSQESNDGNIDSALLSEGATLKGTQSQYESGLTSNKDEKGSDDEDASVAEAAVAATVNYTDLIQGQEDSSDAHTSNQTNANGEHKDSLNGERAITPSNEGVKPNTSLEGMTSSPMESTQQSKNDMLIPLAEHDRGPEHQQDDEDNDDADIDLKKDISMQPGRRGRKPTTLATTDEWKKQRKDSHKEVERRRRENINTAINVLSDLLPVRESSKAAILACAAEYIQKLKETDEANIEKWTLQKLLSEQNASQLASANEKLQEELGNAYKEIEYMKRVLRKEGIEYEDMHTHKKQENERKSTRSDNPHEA
Strand,fluorescence intensity [a.u.]
CTATGTTGGAGATATCTCCTGTATGGGTAATATTTCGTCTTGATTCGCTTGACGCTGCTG,517
CCTAACTACTATAGTGGTGTCGTATAGCTTCGTACAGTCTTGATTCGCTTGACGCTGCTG,518
GAAATAGTGGGTCGGCATGTGTTTGCTATTAGATAGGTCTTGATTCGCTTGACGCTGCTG,650
CTATGCGACGGTATCCACGTGCAGAACAACATATTCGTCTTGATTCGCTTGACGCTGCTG,2930
GAACTACTTTCTTTCTACGTGACATAAACGAGGTAGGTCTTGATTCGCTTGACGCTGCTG,868

# Further values, each from its own experiment
Molecule,target,assay,test system,setting,how to read,endpoint,value
"PhoQ, residues 284 288 289 292 302 303 SVTLVV","PhoP, residues 12 14 15 18 19 FWNTL (Escherichia coli, UniProt P23836)","Sort-seq, measured: YFP reporter",E. coli,"PhoQ-PhoP variant library, together with: 10 µM Mg2+","baseline: high Mg2+ state, higher = stronger signaling",fold induction,8.97

# Some of these lines once more (sample 3):
Strand,fluorescence intensity [a.u.]
CCTAACTACTATAGTGGTGTCGTATAGCTTCGTACAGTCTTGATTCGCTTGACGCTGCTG,518
